{"data": "Measurements from different studies", "note": "A part holds a random share of what one study measured. Changes are numbered by the printed parent chain."}
{"data": "Study 1", "target": "Interferon regulatory factor 7, full length, phosphomimetic (IRF7, Homo sapiens, UniProt Q92985, residues 1-503, S471D/S472D/S475D/S476D/S477D/S483D/S484D/S487D)", "technique": "protein-binding microarray", "molecule type": "double-stranded DNA, one strand shown", "medium": "in vitro", "tested at": "2200 nM top", "notes": "60-bp whole probe", "together with": "salmon DNA 0.4 mg/ml", "relative to": "random background probes", "reading": "higher = stronger binding", "constant ends, left off below": "GCCTAGCAC … GTCTTGATTCGCTTGACGCTGCTG", "Target sequence (chain)": "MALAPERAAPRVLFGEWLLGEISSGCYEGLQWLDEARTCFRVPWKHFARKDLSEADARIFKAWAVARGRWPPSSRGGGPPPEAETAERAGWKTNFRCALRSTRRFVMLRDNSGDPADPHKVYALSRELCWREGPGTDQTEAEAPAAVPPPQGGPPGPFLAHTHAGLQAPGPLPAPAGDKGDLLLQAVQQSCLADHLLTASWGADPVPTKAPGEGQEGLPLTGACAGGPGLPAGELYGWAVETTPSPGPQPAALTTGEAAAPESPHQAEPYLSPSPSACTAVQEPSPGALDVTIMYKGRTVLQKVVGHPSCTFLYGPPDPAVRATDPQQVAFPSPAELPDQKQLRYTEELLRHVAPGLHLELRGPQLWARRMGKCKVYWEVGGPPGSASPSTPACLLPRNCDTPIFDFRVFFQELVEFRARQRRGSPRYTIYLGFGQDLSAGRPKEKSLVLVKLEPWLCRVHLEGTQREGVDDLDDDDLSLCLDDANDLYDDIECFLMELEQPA"}
{"Strand": "TTAGATTACAGTTTCGATTAGTGCTAG", "fitted relative affinity [z-score]": 5.22}
{"Strand": "TTAGGACTGTGTTTCGGTTAGTGCTAG", "fitted relative affinity [z-score]": 3.66}
{"Strand": "GACGAACTGGTGACTGGAGACGTGCTA", "fitted relative affinity [z-score]": -0.339}
{"Strand": "GACGGTATCGGTCTCGCGACGTGCTAG", "fitted relative affinity [z-score]": 0.19}
{"Strand": "TCATCTCTGTCCCTGTTACTGTGCTAG", "fitted relative affinity [z-score]": 2.55}
{"Strand": "GGACTGTCAGCCACTTTTTGGTGCTAG", "fitted relative affinity [z-score]": 0.0349}
{"Strand": "CGAGTTTTCTCTCCCATTCTGTGCTAG", "fitted relative affinity [z-score]": 2.21}
{"Strand": "TCAGGTTCTCTTTTATTACTGTGCTAG", "fitted relative affinity [z-score]": 1.62}
{"Strand": "TTCGGTTTCGGTATCGGTTAGTGCTAG", "fitted relative affinity [z-score]": 9.76}
{"Strand": "TTCGGTATCCTTATCCTTTAGTGCTAG", "fitted relative affinity [z-score]": 1.97}
{"Strand": "GACGAACTGAGTTTAGAGACGTGCTAG", "fitted relative affinity [z-score]": -0.179}
{"data": "Study 2", "target": "Sal-like protein 4, full length isoform B (SALL4, Homo sapiens, UniProt Q9UJQ4-2, residues 1-616)", "technique": "universal PBM", "molecule type": "double-stranded DNA, one strand shown", "medium": "in vitro", "tested at": "not given", "notes": "8-mer, flanks averaged, mean of replicates", "reading": "higher = stronger binding", "Construct (chain)": "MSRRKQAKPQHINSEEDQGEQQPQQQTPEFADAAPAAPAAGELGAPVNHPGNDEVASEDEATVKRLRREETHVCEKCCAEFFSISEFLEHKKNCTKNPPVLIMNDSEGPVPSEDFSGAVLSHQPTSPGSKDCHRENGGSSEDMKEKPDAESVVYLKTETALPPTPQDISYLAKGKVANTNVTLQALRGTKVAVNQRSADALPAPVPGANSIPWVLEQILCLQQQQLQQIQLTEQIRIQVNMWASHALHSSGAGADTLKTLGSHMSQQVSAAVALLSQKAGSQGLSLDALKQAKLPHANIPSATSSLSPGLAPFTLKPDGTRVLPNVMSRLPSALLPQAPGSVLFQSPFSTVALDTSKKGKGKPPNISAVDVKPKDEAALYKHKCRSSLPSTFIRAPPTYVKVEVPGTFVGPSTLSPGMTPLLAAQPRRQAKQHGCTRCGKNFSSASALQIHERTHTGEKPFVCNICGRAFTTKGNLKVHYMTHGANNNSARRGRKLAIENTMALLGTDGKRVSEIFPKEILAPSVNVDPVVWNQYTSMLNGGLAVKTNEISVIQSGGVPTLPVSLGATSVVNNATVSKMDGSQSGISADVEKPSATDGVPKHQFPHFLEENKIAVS"}
{"Strand": "GGCTGTAC", "E-score": -0.278}
{"Strand": "CGACCACA", "E-score": -0.226}
{"Strand": "ATCGCATA", "E-score": 0.209}
{"Strand": "CGAACTAG", "E-score": -0.0711}
{"Strand": "AAAATGAT", "E-score": 0.347}
{"Strand": "CCACCCCA", "E-score": -0.139}
{"Strand": "ACAGCTCG", "E-score": -0.155}
{"Strand": "ATGCTCTG", "E-score": -0.0761}
{"Strand": "AGGGCTTA", "E-score": -0.0211}
{"data": "Study 3", "target": "CCNE2, cyclin fold, Cln2 fusion (human)", "technique": "yeast growth competition, sequencing", "medium": "yeast", "notes": "weak parent motif", "relative to": "not given", "reading": "higher = stronger binding", "starting sequence": "RB1 docking peptide (human); PKPLKKLRFDIEG"}
{"Substitution": "L7K", "normalised enrichment score": 1.27}
{"Substitution": "K6C", "normalised enrichment score": 1.41}
{"Substitution": "P3D", "normalised enrichment score": 0.921}
{"Substitution": "R8Y", "normalised enrichment score": 0.85}
{"Substitution": "L7P", "normalised enrichment score": 1.18}
{"Substitution": "D10Q", "normalised enrichment score": -0.174}
{"Substitution": "P1R", "normalised enrichment score": 0.767}
{"data": "Further values, each from its own experiment"}
{"Substance": "PhoQ, residues 284 288 289 292 302 303 AAQSYM", "target": "PhoP, residues 12 14 15 18 19 STWGI (Escherichia coli, UniProt P23836)", "test": "Sort-seq, refers to: YFP reporter", "test system": "E. coli", "conditions": "PhoQ-PhoP variant library, together with: 10 µM Mg2+", "how to read": "relative to: high Mg2+ state, higher = stronger signaling", "endpoint": "fold induction", "result": 1.4}
{"note": "Excerpt of the above (study 2):"}
{"Strand": "ATCGCATA", "E-score": 0.209}
{"Strand": "CGAACTAG", "E-score": -0.0711}
{"Strand": "AAAATGAT", "E-score": 0.347}
